Results pooled from the literature.
Protocols differ between the studies behind these lines. Values joined by “and” are separate records of one study, mostly repeats; a detail may differ. ± marks the error that the study gave. ≈ marks a conversion by molar mass, not a printed value.
IDE: Insulin-degrading enzyme (IDE, Homo sapiens, UniProt P14735)

Structure (SMILES)	tested on	test	test system	setting	scale	measurement	result
CC(C)C[C@H](NC(=O)C[C@H](O)[C@H](CC(C)C)NC(=O)[C@H](Cc1c[nH]cn1)NC(=O)CNC(=O)[C@@H](NC(=O)[C@H](C)NC(=O)[C@H](Cc1c[nH]c2ccccc12)NC(=O)[C@H](CCC(N)=O)NC(=O)[C@@H](Cc1ccccc1)NC(=O)COCCOCCNC(=O)CCC(C(=O)O)N1CCN(CC(=O)O)CCN(CC(=O)O)CCN(CC(=O)O)CC1)C(C)C)C(N)=O (some centres unmarked) [lutetium-177 labelled]			BALB/c nu/nu mice, muscle	intravenous, 100 pmol, 1 h, with: PA 300 µg		tissue uptake	0.1 ± 0.06 %ID/g
CC(=O)Nc1cccc(-n2c(=O)n(C3CC3)c(=O)c3c(Nc4ccc(I)cc4F)n(C)c(=O)c(C)c32)c1	NCI-H2087 (BRAF L597V)			1.56 nM, 72 h, unit not given	baseline: DMSO	viability	0.881
N#Cc1cc(-c2nc3ccccc3s2)c(=O)n(NS(=O)(=O)c2ccccc2)c1N	herpes simplex virus 1	viral replication, plaque	Vero	non-toxic dose, mean of three titres		plaque reduction	70%
Cc1[nH]c(C)c(-c2ccc(OCc3cc(C(F)(F)F)cc(C(F)(F)F)c3)nc2)c(=O)c1Cl	Plasmodium yoelii		17XL	384-well		IC50	168 ± 38 nM
N=C(N)c1ccc(OCc2ccc(Br)cc2COc2ccc(C(=N)N)cc2)cc1	Escherichia coli	checkerboard	BW25113	concentration not given, lowest-FICI combination, with: erythromycin		MIC of compound in combination	12.5 µg/mL
O=C(c1cc(-c2ccco2)[nH]n1)N1CCN(S(=O)(=O)c2ccc(Cl)cc2)CC1	Plasmodium yoelii		17XL	384-well		IC50	411 ± 123 nM
Cc1[nH]c(/C=C2\N=C(c3ccc[nH]3)C=C2OCc2ccccc2)cc1Cc1ccc(OC(F)(F)F)cc1	Plasmodium yoelii	parasitaemia	mouse	4-day treatment, parasitaemia day 5		ED50	2.57 mg/kg/day
CN[C@H](CC(C)C)C(=O)N[C@H]1C(=O)N[C@@H](CC(N)=O)C(=O)N[C@H]2C(=O)N[C@H]3C(=O)N[C@H](C(=O)N[C@H](C(=O)O)c4cc(O)cc(O)c4-c4cc3ccc4O)[C@H](O)c3ccc(c(Cl)c3)Oc3cc2cc(c3O[C@@H]2O[C@H](CO)[C@@H](O)[C@H](O)[C@H]2O[C@H]2C[C@](C)(N)[C@H](O)[C@H](C)O2)Oc2ccc(cc2Cl)[C@H]1O	Staphylococcus epidermidis		MRSE	10 isolates		MIC50	0.5 µg/mL (≈ 0.345 µM)
CC[C@H](CO)N(CCN(N=O)[C@H](CC)CO)N=O	Salmonella typhimurium	mutagenicity, Ames plate incorporation	TA1535	150 µg/plate, without S9, methanol		revertant colonies per plate	12.7 ± 2
CC(C)n1ncc2c(C(=O)NCC3(C)CNC3)cc(C3CC3)nc21	Enterovirus D68	cytopathic effect	RD, US/MO/14-18947			EC50	250 nM
CC(Cl)=CCc1c(C)[nH]c2c(ccc3ccccc32)c1=O	Plasmodium yoelii		17XL	384-well		IC50	554 ± 208 nM
N=C(N)c1ccc(OCc2cc(COc3ccc(C(=N)N)cc3)cc(-c3ccccc3)c2)cc1	Escherichia coli	checkerboard	552100 clinical isolate	unit not given, with: rifampicin	lower = stronger synergy	FICI	0.078
Cc1ccccc1-c1ccc([C@H]2[C@@H](CO)N3CCCCN(S(=O)(=O)c4cn(C)cn4)C[C@H]23)cc1	IDE	enzyme activity, inhibitor, fluorogenic kinetic		with: Mca-RPPGFSAFK(Dnp)-OH substrate		EC50	2200 nM
C=CC[C@@H]1c2ccc(OC)c(OC)c2CN2CCc3cc4c(cc3[C@H]12)OCO4	Staphylococcus aureus		P2rx7+/+ mice, skin wound infection	dose not given, day 3	baseline: day 0	relative wound size	0.81 and 0.41 and 0.57 and 0.4 and 0.84
COC1=CC(c2ccc[nH]2)=N/C1=C\c1cc(Cc2ccc(OC(F)(F)F)cc2)c(C)[nH]1.Cl	Plasmodium yoelii		CF1 mice	oral, 10 mg/kg daily for 4 days, day 5	baseline: vehicle	parasitaemia reduction	100%
COc1ccc(-c2nc(N3CCOCC3)c3sc(CN(C)c4ncc(C(=O)NO)cn4)cc3n2)cn1	herpes simplex virus 1	viral replication	K26, GFP-expressing, 3D bioprinted skin, submerged			IC50	1450 nM
COC1=CC(c2ccc[nH]2)=N/C1=C\c1[nH]c(C)cc1Cc1ccc(OC(F)(F)F)cc1.Cl	Plasmodium yoelii		CF1 mice	oral, 10 mg/kg daily for 4 days, day 5	baseline: vehicle	parasitaemia reduction	100%
Cc1nc(C)c(Cl)c(O)c1Cl	Trichomonas gallinae	CCK-8	trophozoites	24 h		IC50	10500 nM
CCC1=C(CC)/C(=C/c2[nH]c(Cc3ccc(Cl)cc3)cc2Cc2ccc(Cl)cc2)N=C1c1ccc[nH]1	Plasmodium yoelii	parasitaemia	mouse	4-day treatment, parasitaemia day 5		ED50	3.29 mg/kg/day
CCOc1ccc2cc(-c3nn(CC4CCN(C)CC4)c4ncnc(N)c34)ccc2c1	Theileria equi	hydroethidine flow cytometry	USDA Florida	30 µM, 72 h		% of maximum PPE	6.95%
Cc1cc(Nc2ccc(S(F)(F)(F)(F)F)cc2)n2nc(C(C)(F)F)nc2n1	Plasmodium falciparum	microscopy	human malaria patients	250 mg, median		lag phase (Tlag)	16 h
CCOc1ccc2cc(-c3nn(CC4CCNCC4)c4ncnc(N)c34)ccc2c1	Theileria equi	parasite growth, hydroethidine flow cytometry	USDA Florida	72 h		EC50	4110 nM
NC(=O)c1cnc2[nH]ccc2c1N[C@@H]1[C@@H]2CC3C[C@H]1C[C@@](O)(C3)C2		flow cytometry	Japanese healthy men, blood	oral, 10 mg twice daily, 72 h after day 7 dose	baseline: baseline	CD8+ memory T-cell change	-0.25%
Oc1c(I)cc(I)c2cccnc12	Trichomonas gallinae	CCK-8	trophozoites	24 h		IC50	8200 nM
Oc1ccccc1-c1n[nH]cc1-c1ccnc2ccccc12	CMK2 (Candida albicans)	kinase binding, MIB/MS competition	Candida albicans lysate	1 µM	baseline: DMSO	log2 fold change	-0.42

Structure (SMILES)	tested on	test	test system	setting	scale	measurement	result
CC1(F)CN(C(=O)Cn2c(=O)c(C(=O)NCc3ccc(Cl)cc3)cc3nc(N4CCNC4=O)cnc32)C1	herpes simplex virus 1	viral cytopathic effect	Vero	120 h		EC50	510 nM
CC(=Nc1ccc(N=Cc2cnccn2)cc1)N(C)C	Necator americanus		infected hamsters	oral, 12.5 mg/kg single dose, 49 days post infection		worm burden reduction	75.8% and > 70%
CC(C)N(Cc1cnc2nc(N)nc(N)c2n1)c1ccc(Cl)c(Cl)c1	Plasmodium yoelii		17XL	384-well		IC50	> 20000 nM
CCOC1=CC(c2ccc[nH]2)=N/C1=C\c1cc(Cc2ccc(Cl)cc2)c(C)[nH]1.Cl	Plasmodium yoelii		CF1 mice	oral, 25 mg/kg daily for 4 days, day 5	baseline: vehicle	parasitaemia reduction	100%
C[Si](C)(C)O[Si](C)(C)O[Si](C)(C)C	Oncorhynchus mykiss	model from S9 data		per S9 batch		total depuration rate constant	0.08 day⁻¹ and 0.09 day⁻¹ and 0.067 day⁻¹
OC(CCN1CCCCC1)(c1ccccc1)C1CC2C=CC1C2 (centres unmarked)		resting-state EEG	healthy elderly humans	oral, 2 mg, eyes closed, LS mean		power, delta EEG, O2-Pz	8.9 µV²
O=c1cccc(O)c(O)c1O	herpes simplex virus 1	viral replication		5 µM		reduction in viral titre	0.1 log10
CC(=O)Oc1ccccc1C(=O)Nc1ncc([N+](=O)[O-])s1	Cryptosporidium parvum		HCT-8	EC90, 0 h	baseline: DMSO control	parasite number	109% and 93.3% and 96.8% and 101%
CCOc1ccc2cc(-c3nn(CC4CCN(C)CC4)c4ncnc(N)c34)ccc2n1	Theileria equi	hydroethidine flow cytometry	USDA Florida	12 µM, 72 h		% of maximum PPE	16.6%
Cc1ccc(S(=O)(=O)Nn2c(N)c(C#N)cc(-c3nc4ccccc4s3)c2=O)cc1	herpes simplex virus 1	viral replication, plaque	Vero	non-toxic dose, mean of three titres		plaque reduction	10%
Cc1[nH]c(C)c(-c2ccc(S(=O)(=O)c3ccc(Cl)cc3)cc2)c(=O)c1Cl	Plasmodium yoelii		17XL	384-well		IC50	375 ± 112 nM
COC1=CC(c2ccc[nH]2)=N/C1=C\c1[nH]c(-c2ccc(OC)cc2)cc1-c1ccc(OC)cc1	Plasmodium yoelii		CF1 mice	oral, 10 mg/kg daily for 4 days, day 5	baseline: vehicle	parasitaemia reduction	0%
Nc1ccc(Br)cc1C(=O)NCCCCNc1ccnc2cc(Cl)ccc12	Chromobacterium violaceum	violacein production	ATCC 31532	10 µM, 2% DMSO		inhibition	45.2%
c1coc(-c2n[nH]cc2-c2ccnc3ccccc23)c1	FPK1 (Candida albicans)	kinase binding, MIB/MS competition	Candida albicans lysate	10 µM	baseline: DMSO	log2 fold change	-0.07
COC(=O)[C@H](Cc1c[nH]c2ccccc12)NCc1cc2ccccc2nc1SC	Pseudomonas aeruginosa			4 µg/mL, with: pentamidine 100 µM	baseline: control	growth	71.9%
CO[C@H]1CN(C)C(=O)c2cc(NC(=O)c3ccc(Oc4ccccc4)cc3)ccc2OC[C@@H](C)NC[C@@H]1C	IDE	enzyme activity, inhibitor, fluorogenic kinetic		with: Mca-RPPGFSAFK(Dnp)-OH substrate		EC50	2900 nM
O=C(Nc1cccc(C2=NCCN2)c1)Nc1cccc(C2=NCCN2)c1	Theileria equi	parasite growth, flow cytometry	equine erythrocytes, USDA Florida	72 h		EC50	5 nM
CC[C@H]1OC(=O)[C@H](C)[C@@H](O[C@H]2C[C@@](C)(OC)[C@@H](O)[C@H](C)O2)[C@H](C)[C@@H](O[C@@H]2O[C@H](C)C[C@H](N(C)C)[C@H]2O)[C@](C)(O)C[C@@H](C)CN(C)[C@H](C)[C@@H](O)[C@]1(C)O	Chromobacterium violaceum	bacterial viability, resazurin	ATCC 31532	400 µM		inhibition	89.9%
O=C(c1cc(-c2cccs2)[nH]n1)N1CCN(S(=O)(=O)c2ccc(Cl)s2)CC1	Plasmodium yoelii		17XL	384-well		IC50	1140 ± 439 nM
COc1ccnc(C(=O)NC(CO)C(=O)O)c1O (racemic)	Pseudokirchneriella subcapitata	growth rate		72 h, static test		EC50	4.4 µg/mL
O=C(O)CNC(=O)Cc1ccccc1			ventricular cardiomyocytes, C57BL/6 mouse	dose not given, 0.772 s		sarcomere length	1.72 µm
CCCCN1CC[C@@H](CCC(O)c2cc(OCCC)nc3ccc(OC)cc23)[C@@H](CC)C1 (some centres unmarked)	Plasmodium yoelii		17XL	384-well		IC50	> 20000 nM
CNC(C)C1CCC(N)C(OC2C(N)CC(N)C(OC3OCC(C)(O)C(NC)C3O)C2O)O1 (centres unmarked)	Citrobacter freundii		clinical isolate RKI-No_604/16			MIC	> 8 µg/mL
Cc1ccc2[nH]c(C)c(Br)c(=O)c2c1	Plasmodium yoelii		17XL	384-well		IC50	2240 ± 355 nM
Nc1nc(-c2ccccc2)nc2[nH]nc(Nc3ccc(C(F)(F)F)cc3)c12	coxsackievirus B3		31-1-93, NMRI mice, CVB3 chronic myocarditis	oral, 100 mg/kg twice daily, day 28, dosed days 3 to 10, score scale 0 to 7	direction not given	clinical score	0.2
